Measured values gathered from unrelated publications.
Each line is one published result; not all experiments were run side by side. Several values in a cell are separate wells, animals, samples, runs or records. ± marks the error that the study gave.

Structure (SMILES)	test	test system	setting	how to read	endpoint	result
COc1cc(N2CCN(C(=O)C3CCCN3)CC2)ccc1Nc1ncc(Cl)c(Nc2ccccc2P(C)(C)=O)n1 (stereo not drawn)		nude mice, NCI-H3122 xenograft	oral, dose not given, day 1		body weight	23.8 g and 22.4 g and 22.9 g and 23 g
OC1(C(F)(F)F)CCN(c2nc(Nc3ccnc(C(F)(F)F)c3)nc(-c3cccc(C(F)(F)F)n3)n2)C1 (stereo not drawn)		monkey, plasma	oral, 1 mg/kg		Cmax	255 ± 49.3 ng/mL
O=C(NS(=O)(=O)c1cccs1)c1cc2ccccc2n1Cc1ccc(Br)c2ccccc12		KM mouse, chronic hyperuricaemia model	dose not given, day 1		body weight	27.1 g and 25.4 g and 26.9 g and 24.5 g and 25.1 g
CCC1=[N+]2N=C(c3ccccc3)C(=O)O[B-]2(c2ccccc2)Oc2cc(N(CC)CC)ccc21 (stereo not drawn)		toluene			fluorescence quantum yield	0.72
CC(=O)N[C@H](CC(=O)O)C(=O)N[C@H](Cc1c[nH]c2ccccc12)C(=O)N[C@H](Cc1ccccc1)C(=O)N[C@H](CCCCN)C(=O)N[C@H](C)C(=O)N[C@H](Cc1ccccc1)C(=O)N[C@H](Cc1ccc(O)cc1)C(=O)N[C@H](CC(=O)O)C(=O)N[C@H](CCCCN)C(=O)N[C@@H](C(=O)N[C@H](C)C(=O)N[C@H](CCC(=O)O)C(=O)N[C@H](CCCCN)C(=O)N[C@H](Cc1ccccc1)C(=O)N[C@H](CCCCN)C(=O)N[C@H](CCC(=O)O)C(=O)N[C@H](C)C(=O)N[C@H](Cc1ccccc1)C(N)=O)C(C)C		high-risk statin-treated subjects with CHD, plasma	oral, dose not given, median, doses pooled		AUC(0-t)	27.2 ng·h/mL
C=CC(=O)Nc1cc(Nc2nccc(-c3c[nH]c4ccccc34)n2)c(OC)cc1N(C)CCN(C)C	storage stability	human dried blood spots	72 h, on ice, LLOQ level		recovery	70.3%
CC(C)(O)c1ncc([S@](N)(=O)=NC(=O)Nc2c3c(cc4c2CCC4)CCC3)s1	measured: Psychiatric disorders	healthy human volunteers	oral, 10 mg once daily, 14 days, capsule formulation		subjects with adverse events	17%
CC(=O)Nc1ccc([C@H]2[C@@H](F)[C@@H](F)C[C@@H](F)[C@H]2F)cc1	liver microsome stability	rat liver microsomes	1 µM		hepatic clearance	20 mL/min/kg
Cc1[nH]c(=O)c(CNC(=O)c2cc(Cl)c3c(c2C)O[C@@](C)([C@H]2CC[C@H](N(C)C)CC2)O3)c(C)c1O		human male, plasma	oral, 200 mg of valemetostat	baseline: compound over valemetostat	AUC(0-inf) ratio	0.88
COc1cccc(OC)c1-c1cc(C(=O)NC2(C(=O)O)C3CC4CC(C3)CC2C4)nn1-c1ccc(C(=O)N(C)CCOCCOCCN(C)C(=O)[C@H](CCCCNC(=O)[C@H](CC(C)C)NC(=O)C2OC2C(=O)O)NC(=O)CN2CCN(CC(=O)[O-])CCN(CC(=O)[O-])CCN(CC(=O)[O-])CC2)cc1C(C)C.[177Lu+3] (mixture of isomers)		mouse, HT-29 xenograft	24 h post injection, biodistribution	baseline: tumour over kidney uptake	tumour-to-kidney ratio	0.33
F[C@@H]1[C@H](c2ccc(-c3ccc(N4CCCC4)nc3)cc2)[C@H](F)[C@H](F)C[C@@H]1F	hepatocyte stability	cryopreserved mouse hepatocytes	1 µM		hepatic clearance	21 mL/min/kg
O=C(N1CCCCC1)C12CC(c3ccccc3)(C1)C2(Cl)Cl	metabolic stability	human, liver microsomes	2 µM, 15 min, pH 7.4		compound remaining	79%
CC1(C)C(=CC=C2CCCC(C=CC3=[N+](CCC[N+](C)(C)C)c4ccc(S(=O)(=O)O)cc4C3(C)C)=C2SCCOCCOCCC(=O)O)N(CCC[N+](C)(C)C)c2ccc(S(=O)(=O)O)cc21		CD-1 mouse, urine	intravenous, 50 nmol, up to 4 h		urinary excretion	85 ± 1.9 % injected dose
CCC1=[N+]2N=C(/C=C/C=C/c3ccc(C(F)(F)F)cc3)C(=O)O[B-]2(c2ccccc2)Oc2cc(N(CC)CC)ccc21 (stereo not drawn)		toluene			fluorescence lifetime	1.09 ns
COC1C=COC2(C)Oc3c(C)c(O)c4c(c3C2=O)C2=NC3(CCN(CC(C)C)CC3)NC2=C(NC(=O)C(C)=CC=CC(C)C(O)C(C)C(O)C(C)C(OC(=O)Nc2cccnn2)C1C)C4=O (stereo not drawn)		CD-1 mouse female, plasma	oral, 10 mg/kg		fAUC/MIC ratio	63.5
CC(C)C[C@H](NC(=O)[C@H](CO)NC(=O)[C@H](CCC(=O)O)NC(=O)CNC(=O)[C@H](C)NC(=O)OCc1ccccc1)C(=O)N[C@@H](Cc1ccc(O)cc1)C(=O)N[C@@H](CCC(=O)O)C(N)=O	metabolic stability	human, plasma	15 min		compound remaining	83.2%
COc1cccc(OC)c1-c1cc(C(=O)NC2(C(=O)O)C3CC4CC(C3)CC2C4)nn1-c1ccc(C(=O)N(C)CCOCCN(C)C(=O)[C@H](CCCCNC(=O)[C@H](CC(C)C)NC(=O)C2OC2C(=O)O)NC(=O)CN2CCN(CC(=O)[O-])CCN(CC(=O)[O-])CCN(CC(=O)[O-])CC2)cc1C(C)C.[177Lu+3] (mixture of isomers)		mouse, HT-29 xenograft	168 h post injection, biodistribution	baseline: tumour over kidney uptake	tumour-to-kidney ratio	0.69
C=C(NC(=O)c1csc(-c2nc3c(cc2O)-c2nc(cs2)C(=O)NC(C(C)O)C(=O)NC(=C(C)OC)c2nc(cs2)C(=O)NC2c4nc(cs4)C(=O)NC(COC(=O)c4c5c6c(cccc6n4O)COC(=O)C(OC4CC(C)(O)C(N(C)C)C(C)O4)C2OC5)c2nc-3cs2)n1)C(N)=O (stereo not drawn)		ICR mice, Streptococcus pneumoniae ATCC 49169 infected, immunocompromised, blood	intravenous, 4 mg/kg/day once daily		AUC(0-inf)	342 ng·h/mL
COc1cccc(OC)c1-c1cc(C(=O)NC2(C(=O)O)C3CC4CC(C3)CC2C4)nn1-c1ccc(C(=O)N(C)CCCN(C)C(=O)[C@H](CCCCNC(=O)[C@H](CC(C)C)NC(=O)C2OC2C(=O)O)NC(=O)CN2CCN(CC(=O)[O-])CCN(CC(=O)[O-])CCN(CC(=O)[O-])CC2)cc1C(C)C.[177Lu+3] (mixture of isomers)		mouse, HT-29 xenograft	72 h post injection, biodistribution	baseline: tumour over bone uptake	tumour-to-bone ratio	14.2
C/C(N)=N/C(=N\S(=O)(=O)c1ccc(C(F)(F)F)cc1)N1C[C@H](c2ccccc2)C(c2ccc(Cl)cc2)=N1		beagle dog, plasma	oral, 6 mg/kg		AUC(0-inf)	12400 ng·h/mL
O=C(CN1CCOCC1)Nc1ccc([C@H]2[C@@H](F)[C@@H](F)C[C@@H](F)[C@H]2F)cc1	hepatocyte stability	cryopreserved mouse hepatocytes	1 µM		hepatic clearance	21 mL/min/kg
COc1cc2c(cc1OC)[C@H]1C[C@H](O)[C@H](CC(C)C)CN1CC2	measured: non-deuterated analyte	healthy human male, plasma	oral, 25 mg, median, [14C]-tetrabenazine dosed		Tlag	0.5 h
COc1ccc2c(c1)CN(C(=O)CCN1CCC(Cc3ccccc3)CC1)CCS2		paroxysmal AF patients, plasma	oral, 540 mg, 0 min		unbound plasma concentration	0 nM
CC(C)OC(=O)[C@H](CO)NCc1cc(Cl)c(OCc2cccc(-c3ccccc3)c2Br)cc1OCc1cccnc1		hPD-L1 MC-38 tumour, humanised hPD-1 C57BL/6 mouse	oral, 10 mg/kg × 21, day 21		body weight	21.2 ± 1.2 g

Structure (SMILES)	test	test system	setting	how to read	endpoint	result
CN1CCC[C@]1(C)/C=C/S(=O)(=O)NC(=O)Nc1c2c(cc3c1CCC3)CCC2	measured: blood triglycerides increased, not related	human	oral, 50 mg twice daily, 14 days, multiple ascending dose		subjects with adverse event	0%
COc1cccc(OC)c1-c1cc(C(=O)NC2(C(=O)O)C3CC4CC(C3)CC2C4)nn1-c1ccc(C(=O)N(C)CCCN(C)CCCN(C)C(=O)[C@H](CCCCNC(=O)[C@H](CC(C)C)NC(=O)C2OC2C(=O)O)NC(=O)CN2CCN(CC(=O)[O-])CCN(CC(=O)[O-])CCN(CC(=O)[O-])CC2)cc1C(C)C.[177Lu+3] (mixture of isomers)		mouse, HT-29 xenograft	4 h post injection, biodistribution	baseline: tumour over bone uptake	tumour-to-bone ratio	14.8
CC[C@H](C)[C@H](NC(=O)[C@H](CCC(N)=O)NC(=O)[C@@H](NC(=O)[C@@H]1CCCN1[C@@H]1CN(C(=O)[C@H](CCCCN)NC(=O)[C@H](CC(N)=O)NC(=O)[C@@H](NC(=O)[C@@H](NC(=O)[C@H](CCC(N)=O)NC(=O)[C@@H](N)C(C)C)[C@@H](C)CC)[C@@H](C)CC)CC[C@H]1NS(=O)(=O)c1ccc(C)cc1)C(C)C)C(=O)N[C@H](C(=O)N[C@@H](Cc1ccc(O)cc1)C(=O)N[C@@H](CCCCN)C(N)=O)C(C)C	circular dichroism	methanol	125 µM, 20 °C		helix content	0%
O=C1C2CC3CC1CC(C(=O)N1CCN(c4ccc([N+](=O)[O-])c5ncccc45)CC1)(C3)C2		ICR mice male, plasma	intravenous, 1 mg/kg		Vz	2.29 L/kg
C=C1C[C@]2(C(=O)OC)C=C(C(=O)Nc3cccc(C(=O)Nc4ccc(Nc5nccc(-c6cccnc6)n5)c(C)c4)c3)C(=O)[C@H]1C2		Wistar rat, male, plasma	10 µM, 60 min		compound remaining	0.75% and 0.5%
c1cc(C2CCCCC2)ccc1-c1cnc(N2CCOCC2)nc1	liver microsome stability	rat liver microsomes	1 µM		hepatic clearance	39 mL/min/kg
O=C(Nc1cnccc1-c1ccc([18F])cc1)c1ccnc(NC(=O)C2CC2)c1		FVB/NJ mouse, both sexes, brain	intravenous, 40 min		SUV	0.18
CSCCC(C(=O)Nc1ccc2c(c1)OCCO2)N1Cc2ccccc2C1=O (stereo not drawn)	PAMPA	brain lipid membrane	10 µM, 4 h		permeability coefficient	14.4 ×10⁻⁶ cm/s
CS(=O)(=O)c1ccc(-c2ccc(C3CCCCC3)cc2)cn1	hepatocyte stability	cryopreserved human hepatocytes	1 µM		hepatic clearance	17 mL/min/kg
O=C(Nc1cnccc1-c1ccc([18F])nc1)c1ccnc(NC(=O)C2CC2)c1	PET imaging	FVB/NJ mice, both sexes, liver	intravenous, 10 min post-injection		SUV	9.33
Cc1noc(C)c1Cn1cc(N2C(=O)CN(Cc3cccc(O[C@@H]4O[C@H](C(=O)O)[C@@H](O)[C@H](O)[C@H]4O)c3)C2=O)cn1		Sprague-Dawley rat, male	oral, 30 mg/kg of parent drug, 1 h		plasma concentration	5570 ng/mL
COC(=O)[C@@]1(C)C=C(C(=O)Nc2cccc(C(=O)Nc3ccc(Nc4nccc(-c5cccnc5)n4)c(C)c3)c2)C(=O)CC1		Wistar rat, male, plasma	1 µM, 120 min		compound remaining	2.4%
F[C@@H]1[C@H](c2ccc(-c3cnc(N4CCOCC4)nc3)cc2)[C@H](F)[C@H](F)C[C@@H]1F	hepatocyte stability	cryopreserved rat hepatocytes	1 µM		hepatic clearance	18 mL/min/kg
O=C(CN1CN(c2ccccc2)C2(CCN(C(=O)c3ccc4[nH]ncc4n3)CC2)C1=O)NCC(F)(F)F		mouse liver microsomes			CLint	120 µL/min/mg protein
CC(C)=CCC1=C([O-])C(=O)c2ccccc2C1=O.CC(C)=CCC1=C([O-])C(=O)c2ccccc2C1=O.[Zn+2].c1ccc(-c2ccnc3c2ccc2c(-c4ccccc4)ccnc23)cc1	cyclic voltammetry	CH2Cl2, Bu4NPF6	0.1 mM	baseline: Ag/AgCl sat. KOH	Epc2 cathodic peak potential	-0.39 V
O=C(Nc1ccc([C@H]2[C@@H](F)[C@@H](F)C[C@@H](F)[C@H]2F)cc1)C1CC1	hepatocyte stability	cryopreserved human hepatocytes	1 µM		hepatic clearance	12 mL/min/kg
C=CC(=O)Nc1cc(Nc2nccc(-c3cn(C)c4ccccc34)n2)c(OC)cc1N(C)CCNC		human, plasma	270 ng/mL, 30 d, -80 °C, high QC level		remaining compound	101%
Cc1nn(-c2nc3c(F)cc(F)cc3s2)c(O)c1C(c1ccc(C(F)(F)F)cc1)c1c(C)nn(-c2nc3c(F)cc(F)cc3s2)c1O		ICR mouse	intravenous, 5 mg/kg, 24.0 h		plasma concentration	272 ng/mL and 1770 ng/mL and 253 ng/mL
CC[C@H](C)[C@@H]1NC(=O)[C@H](Cc2ccc(O)cc2)NC(=O)CCCSC[C@@H](C(=O)N(CC(=O)N[C@@H](CC(C)C)C(=O)NCC(N)=O)Cc2ccc(F)cc2)NC(=O)[C@H](CC(N)=O)NC(=O)[C@H](CCC(N)=O)NC1=O		human	intranasal, 400 µg repeated		AE leading to discontinuation	17%
O=C(CC(F)(F)F)Nc1ccc(C2CCCCC2)cc1	liver microsome stability	mouse liver microsomes	1 µM		hepatic clearance	87 mL/min/kg
CCCC[C@H](OC(C)=O)c1ccccc1C(=O)O		Sprague-Dawley rats, both sexes, whole blood	intravenous, 5 mg/kg single dose		MRT(0-t)	2.1 ± 0.4 h
Cc1ccc(OCC(=O)N(Cc2cccs2)c2ccn[nH]2)cc1		monkey plasma	750 ng/mL, 4 h, 37 °C, unit not given	baseline: time zero	remaining compound	77.8
C=Cc1cccc([B-]23OC(=O)C(c4ccccc4)=N[N+]2=Cc2ccc(N(CC)CC)cc2O3)c1 (stereo not drawn)		toluene			fluorescence lifetime	2.54 ns
COc1cccc(OC)c1-c1cc(C(=O)NC2(C(=O)O)C3CC4CC(C3)CC2C4)nn1-c1ccc(C(=O)NCCNC(=O)[C@H](CCCCNC(=O)[C@H](CC(C)C)NC(=O)C2OC2C(=O)O)NC(=O)CN2CCN(CC(=O)[O-])CCN(CC(=O)[O-])CCN(CC(=O)[O-])CC2)cc1C(C)C.[177Lu+3] (mixture of isomers)		mouse HT-29 xenograft, small intestine	72 h post injection, biodistribution		tissue uptake	0.21 %ID/g

Repeated from above:
Structure (SMILES)	test	test system	setting	how to read	endpoint	result
CS(=O)(=O)c1ccc(-c2ccc(C3CCCCC3)cc2)cn1	hepatocyte stability	cryopreserved human hepatocytes	1 µM		hepatic clearance	17 mL/min/kg
O=C(Nc1cnccc1-c1ccc([18F])nc1)c1ccnc(NC(=O)C2CC2)c1	PET imaging	FVB/NJ mice, both sexes, liver	intravenous, 10 min post-injection		SUV	9.33
Cc1noc(C)c1Cn1cc(N2C(=O)CN(Cc3cccc(O[C@@H]4O[C@H](C(=O)O)[C@@H](O)[C@H](O)[C@H]4O)c3)C2=O)cn1		Sprague-Dawley rat, male	oral, 30 mg/kg of parent drug, 1 h		plasma concentration	5570 ng/mL
COC(=O)[C@@]1(C)C=C(C(=O)Nc2cccc(C(=O)Nc3ccc(Nc4nccc(-c5cccnc5)n4)c(C)c3)c2)C(=O)CC1		Wistar rat, male, plasma	1 µM, 120 min		compound remaining	2.4%
F[C@@H]1[C@H](c2ccc(-c3cnc(N4CCOCC4)nc3)cc2)[C@H](F)[C@H](F)C[C@@H]1F	hepatocyte stability	cryopreserved rat hepatocytes	1 µM		hepatic clearance	18 mL/min/kg
O=C(CN1CN(c2ccccc2)C2(CCN(C(=O)c3ccc4[nH]ncc4n3)CC2)C1=O)NCC(F)(F)F		mouse liver microsomes			CLint	120 µL/min/mg protein
